{"data": "Experimental data pooled from the literature", "note": "Each numbered part is a random draw from the data of one study; scales do not carry over between parts."}
{"data": "Block 1", "target": "Replicase polyprotein 1ab, nsp13 helicase (rep, Severe acute respiratory syndrome coronavirus 2, UniProt P0DTD1)", "mode": "inhibitor", "concentration": "20 µM"}
{"Compound": "CCCn1c(=O)[nH]c2nc(-c3ccc(S(=O)(=O)N4CCN(c5ccc(Cl)cc5)CC4)cc3)[nH]c2c1=O", "inhibition": "4.79%"}
{"Compound": "CC(=O)O[C@]1(C(C)=O)CC[C@H]2[C@@H]3CCC4=CC(=O)CC[C@]4(C)[C@H]3CC[C@@]21C", "inhibition": "11.3%"}
{"Compound": "N=C(N)c1cc2ccc(OC(=O)c3cccs3)cc2s1", "inhibition": "7.6%"}
{"Compound": "O=C(Nc1ccccc1)N1CCC(Cc2cnc3ccccc3c2)CC1", "inhibition": "2.36%"}
{"Compound": "C[C@@H]1O[C@@H](OC[C@H]2O[C@@H](Oc3c(-c4ccc(O)c(O)c4)oc4cc(O)cc(O)c4c3=O)[C@H](O)[C@@H](O)[C@@H]2O)[C@H](O)[C@H](O)[C@H]1O", "inhibition": "4.98%"}
{"Compound": "O=C(Nc1ccccc1)c1cc([N+](=O)[O-])ccc1Cl", "inhibition": "-2.4%"}
{"Compound": "C=C1/C(=C\\C=C2/CCC[C@]3(C)[C@@H]([C@H](C)CCCC(O)(C(F)(F)F)C(F)(F)F)CC[C@@H]23)C[C@@H](O)C[C@@H]1O", "inhibition": "5.79%"}
{"Compound": "CCOC1O[C@H]([C@@H](COCc2ccccc2)OCc2ccccc2)[C@H](OCc2ccccc2)[C@H]1O (stereo partly shown)", "inhibition": "3.79%"}
{"Compound": "Cc1cc(O)c(C(C)C)cc1Cl", "inhibition": "1.04%"}
{"Compound": "O=C1c2ccccc2-n2c1nc1ccccc1c2=O", "inhibition": "2.25%"}
{"Compound": "C[C@@H](NCc1cc(Br)cc2[nH]c(=O)c(=O)[nH]c12)P(=O)(O)O", "inhibition": "-1.87%"}
{"Compound": "Cc1cc(CN)cc(C)c1NC(=O)c1ccc(-c2cc(Cl)ccc2Cl)o1", "inhibition": "10.8%"}
{"Compound": "COc1cc(C(C)=O)ccc1OCCCN1CCC(c2noc3cc(F)ccc23)CC1", "inhibition": "9.63%"}
{"Compound": "CC(C)(CO)c1cc2cc(NC(=O)C3(c4ccc5c(c4)OC(F)(F)O5)CC3)c(F)cc2n1C[C@@H](O)CO", "inhibition": "7.27%"}
{"Compound": "Cc1cc(/C=C2\\SC(=O)N(c3ccccc3)C2=O)c(C)n1-c1cccnc1", "inhibition": "5.29%"}
{"Compound": "C=CC[C@]1(O)CC[C@H]2[C@@H]3CCC4=CC(=O)CCC4=C3C=C[C@@]21C", "inhibition": "2.23%"}
{"Compound": "NC(=O)c1ncn([C@@H]2O[C@H](CO)[C@@H](O)[C@H]2O)n1", "inhibition": "1.91%"}
{"Compound": "CNCCN(C)Cc1c[nH]nc1-c1ccc(O[C@H]2C[C@H](OCCC3CCOCC3)C2)cc1", "inhibition": "5.7%"}
{"Compound": "COc1cc(C)c(/C=C/C(C)=C/C=C/C(C)=C/C(=O)O)c(C)c1C", "inhibition": "6.3%"}
{"Compound": "C[C@H]1C[C@@H]2[C@H]([C@@H](O)C[C@@]3(C)[C@H]2CC[C@]3(O)C(=O)CO)[C@@]2(C)C=CC(=O)C=C12", "inhibition": "-1.12%"}
{"Compound": "Nc1nc(OCc2cc(Br)cs2)c2[nH]cnc2n1", "inhibition": "9.21%"}
{"Compound": "CSC[C@H](N)C(=O)O", "inhibition": "3.33%"}
{"Compound": "COc1cc(C)c2c(Oc3cccc(C(F)(F)F)c3)c(OC)cc(NC(C)CCCN)c2n1 (stereo not shown)", "inhibition": "9.09%"}
{"Compound": "Cc1cnc(-c2ccccc2C(C)C)nc1NCc1ccc(-n2ccnn2)cc1", "inhibition": "13.9%"}
{"Compound": "O=C(O)c1ccc(N2C(=O)/C(=C\\c3ccc(-c4ccc([N+](=O)[O-])cc4)o3)C=C2c2ccccc2)cc1", "inhibition": "70.5%"}
{"data": "Block 2", "target": "Interferon regulatory factor 7, full length, phosphomimetic (IRF7, Homo sapiens, UniProt Q92985, residues 1-503, S471D/S472D/S475D/S476D/S477D/S483D/S484D/S487D)", "method": "protein-binding microarray", "form": "double-stranded DNA, one strand shown", "matrix": "in vitro", "concentration": "2200 nM top", "notes": "60-bp whole probe", "together with": "salmon DNA 0.4 mg/ml", "baseline": "random background probes", "reading": "higher = stronger binding", "shared flanks, not repeated": "GCCTAGCAC … GTCTTGATTCGCTTGACGCTGCTG", "Residues (chain)": "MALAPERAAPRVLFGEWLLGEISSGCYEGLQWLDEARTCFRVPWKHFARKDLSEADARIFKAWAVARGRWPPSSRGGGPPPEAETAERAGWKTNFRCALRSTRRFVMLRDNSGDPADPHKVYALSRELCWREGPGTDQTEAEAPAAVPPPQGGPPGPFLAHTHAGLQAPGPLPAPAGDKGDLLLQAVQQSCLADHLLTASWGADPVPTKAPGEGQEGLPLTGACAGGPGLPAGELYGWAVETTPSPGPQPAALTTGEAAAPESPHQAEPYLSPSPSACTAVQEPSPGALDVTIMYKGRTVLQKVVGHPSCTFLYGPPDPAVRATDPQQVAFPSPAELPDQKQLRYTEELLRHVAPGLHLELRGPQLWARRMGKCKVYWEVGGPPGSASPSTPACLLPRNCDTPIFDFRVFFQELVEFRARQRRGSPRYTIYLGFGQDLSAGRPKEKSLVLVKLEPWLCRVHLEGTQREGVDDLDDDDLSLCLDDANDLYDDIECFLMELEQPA"}
{"Oligonucleotide": "GAAGGTCACAAAGACTTCATGTGCTAG", "fitted relative affinity [z-score]": -0.674}
{"Oligonucleotide": "GACGAACTGACTATCGAGACGTGCTAG", "fitted relative affinity [z-score]": 0.0739}
{"Oligonucleotide": "GACGAACTGGGGTATCGAGATGTGCTA", "fitted relative affinity [z-score]": 0.239}
{"Oligonucleotide": "GACGGTTTCCTTTTCCGGACGTGCTAG", "fitted relative affinity [z-score]": 5.65}
{"Oligonucleotide": "GACGAACTAGGGACTGGAGACGTGCTA", "fitted relative affinity [z-score]": -0.613}
{"Oligonucleotide": "TTAGACCTGGGGTATCGATTAGTGCTA", "fitted relative affinity [z-score]": -0.304}
{"Oligonucleotide": "TCAGCTTTCCTGATGGTACTGTGCTAG", "fitted relative affinity [z-score]": 1.71}
{"Oligonucleotide": "TTAGATATCGGGACTGGATTGGTGCTA", "fitted relative affinity [z-score]": -0.253}
{"data": "Block 3", "target": "Sal-like protein 4, full length isoform B (SALL4, Homo sapiens, UniProt Q9UJQ4-2, residues 1-616)", "method": "universal PBM", "form": "double-stranded DNA, one strand shown", "matrix": "in vitro", "concentration": "not given", "notes": "8-mer, flanks averaged, mean of replicates", "reading": "higher = stronger binding", "Construct (chain)": "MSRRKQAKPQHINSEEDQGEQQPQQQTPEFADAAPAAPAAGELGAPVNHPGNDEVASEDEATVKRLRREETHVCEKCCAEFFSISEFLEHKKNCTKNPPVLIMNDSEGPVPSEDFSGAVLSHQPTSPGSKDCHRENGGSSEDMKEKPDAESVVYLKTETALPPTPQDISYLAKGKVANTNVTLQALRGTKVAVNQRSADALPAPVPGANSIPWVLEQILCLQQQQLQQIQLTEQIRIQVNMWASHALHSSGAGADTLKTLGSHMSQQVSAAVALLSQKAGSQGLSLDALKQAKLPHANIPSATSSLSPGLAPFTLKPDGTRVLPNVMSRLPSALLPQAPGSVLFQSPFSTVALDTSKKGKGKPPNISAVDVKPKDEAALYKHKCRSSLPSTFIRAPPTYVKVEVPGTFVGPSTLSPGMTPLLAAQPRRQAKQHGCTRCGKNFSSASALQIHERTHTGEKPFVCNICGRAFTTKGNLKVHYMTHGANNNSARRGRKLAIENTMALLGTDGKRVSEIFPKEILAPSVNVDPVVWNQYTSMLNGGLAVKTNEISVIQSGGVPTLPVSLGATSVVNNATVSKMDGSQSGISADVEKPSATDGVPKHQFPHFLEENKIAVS"}
{"Oligonucleotide": "CAAAGTAG", "E-score": 0.108}
{"Oligonucleotide": "AGTGCACT", "E-score": 0.0991}
{"Oligonucleotide": "AGAGTTTA", "E-score": 0.2}
{"Oligonucleotide": "CGTCATGA", "E-score": -0.0558}
{"Oligonucleotide": "CTGGCAAC", "E-score": -0.27}
{"Oligonucleotide": "GCACCTAA", "E-score": -0.051}
{"Oligonucleotide": "TCTACCAA", "E-score": 0.149}
{"Oligonucleotide": "AAAGGGCG", "E-score": -0.148}
{"data": "Block 4", "cell line": "HEK-293T", "observed": "pseudovirus infection", "method": "FDA-approved drug library screen", "organism": "VSV pseudotyped with SARS-CoV-2 spike", "concentration": "10 µM", "time": "16 h", "baseline": "vehicle-treated"}
{"Compound": "S=c1[nH]cnc2nc[nH]c12", "GFP-positive cells": "90.3%"}
{"Compound": "CCc1cc2c(cc1CC)CC(NC[C@H](O)c1ccc(O)c3[nH]c(=O)ccc13)C2", "GFP-positive cells": "64.8%"}
{"Compound": "CC(c1cc2ccccc2s1)N(O)C(N)=O (stereo not shown)", "GFP-positive cells": "84.1%"}
{"data": "Block 5", "target": "Histone acetyltransferase KAT6A, both winged helices, GST fusion (KAT6A, Homo sapiens, UniProt Q92794, residues 1-181)", "method": "protein binding microarray", "form": "double-stranded DNA, one strand shown", "matrix": "in vitro", "concentration": "not given", "notes": "8-mer, flanks averaged, mean of 2 arrays, mostly near background", "baseline": "not given", "reading": "higher = stronger binding", "Target sequence (chain)": "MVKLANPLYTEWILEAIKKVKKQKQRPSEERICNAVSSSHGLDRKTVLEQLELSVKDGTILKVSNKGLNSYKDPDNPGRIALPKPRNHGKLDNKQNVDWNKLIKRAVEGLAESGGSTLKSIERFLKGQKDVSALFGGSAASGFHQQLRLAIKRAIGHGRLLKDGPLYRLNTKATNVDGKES"}
{"Oligonucleotide": "ATGGTCTC", "E-score": -0.051}
{"Oligonucleotide": "CTGGCAAC", "E-score": -0.165}
{"Oligonucleotide": "ACGTTAAG", "E-score": 0.0602}
{"Oligonucleotide": "GCTAGCAC", "E-score": 0.00975}
{"Oligonucleotide": "CAAATGCC", "E-score": -0.0924}
{"Oligonucleotide": "CTCCACGC", "E-score": 0.0794}
{"Oligonucleotide": "CGTACGTC", "E-score": 0.0802}
{"Oligonucleotide": "GAACGCTC", "E-score": 0.0416}
{"note": "Repeated from above (block 1):"}
{"Compound": "COc1cc(C(C)=O)ccc1OCCCN1CCC(c2noc3cc(F)ccc23)CC1", "inhibition": "9.63%"}
{"Compound": "N=C(N)c1cc2ccc(OC(=O)c3cccs3)cc2s1", "inhibition": "7.6%"}
{"Compound": "CCCn1c(=O)[nH]c2nc(-c3ccc(S(=O)(=O)N4CCN(c5ccc(Cl)cc5)CC4)cc3)[nH]c2c1=O", "inhibition": "4.79%"}
{"Compound": "O=C(O)c1ccc(N2C(=O)/C(=C\\c3ccc(-c4ccc([N+](=O)[O-])cc4)o3)C=C2c2ccccc2)cc1", "inhibition": "70.5%"}
{"Compound": "C=CC[C@]1(O)CC[C@H]2[C@@H]3CCC4=CC(=O)CCC4=C3C=C[C@@]21C", "inhibition": "2.23%"}
{"Compound": "C[C@@H](NCc1cc(Br)cc2[nH]c(=O)c(=O)[nH]c12)P(=O)(O)O", "inhibition": "-1.87%"}
{"Compound": "CC(=O)O[C@]1(C(C)=O)CC[C@H]2[C@@H]3CCC4=CC(=O)CC[C@]4(C)[C@H]3CC[C@@]21C", "inhibition": "11.3%"}
{"Compound": "Cc1cc(CN)cc(C)c1NC(=O)c1ccc(-c2cc(Cl)ccc2Cl)o1", "inhibition": "10.8%"}
